Measured values collected from several papers.
Compare with care: the assays were run in different laboratories.

| Structure (SMILES) | organism | assay | system | conditions | MIC |
| --- | --- | --- | --- | --- | --- |
| O=c1c2ccccc2sn1-c1cc(Br)cc(Br)c1 | Candida albicans | growth, broth dilution | ATCC MYA-2876 (susceptible) | MIC-0 | 6.25 µg/mL |
| CC1(C)S[C@@H]2[C@H](NC(=O)[C@H](NC(=O)C3=C(O)C(c4ccccc4F)NC3=O)c3ccccc3)C(=O)N2[C@H]1C(=O)O (stereo partly shown) | Escherichia coli | broth microdilution | BW25113 | 18 h, together with: 2,2'-bipyridyl 30 µg/mL and CCCP 50 µg/mL | 12.5 µg/mL |
| CC[C@@H](C)[C@@H](NC(=O)[C@@H](C)NC(=O)[C@@H](CCCCN)NC(=O)[C@@H](CC(C)C)NC(=O)[C@@H](CC(C)C)NC(=O)[C@H](NC(=O)[C@@H](CCCCN)NC(=O)[C@@H](CC(C)C)NC(=O)[C@@H](CCCCN)NC(=O)[C@@H](CCCCN)NC(=O)[C@@H](CCCCN)NC(=O)[C@@H](CCCCN)NC(=O)[C@@H](C)NC(=O)[C@@H](CCCCN)NC(=O)[C@@H](CO)NC(=O)[C@@H](Cc1ccccc1)NC(=O)[C@H](NC(=O)[C@@H](CCCCN)NC(=O)[C@@H](CC(C)C)NC(=O)[C@@H](Cc1ccccc1)NC(=O)[C@@H](CO)NC(=O)[C@@H](CCCCN)NC(=O)[C@@H](Cc1c[nH]c2ccccc12)NC(=O)[C@@H](CCCCN)NC(C)=O)[C@H](C)O)[C@H](C)O)C(=O)N[C@H](CO)C(=O)N[C@H](CCCCN)C(N)=O | Acinetobacter baumannii |  | 759, Mueller-Hinton broth | 24 h, 37 °C | 0.6 µM |
| CCCCCC(=O)O[C@H]1[C@H](C)O[C@@H](O[C@H]2[C@H](N(C)C)[C@@H](O)[C@H](O[C@H]3[C@@H](CC=O)C[C@@H](C)[C@@H](O[C@H]4CC[C@H](N(C)C)[C@@H](C)O4)/C=C/C=C/C[C@@H](C)OC(=O)C[C@@H](O)[C@@H]3OC)O[C@@H]2C)C[C@@]1(C)O | Staphylococcus aureus, Staphylococcus epidermidis, Bacillus subtilis |  | incl. MRSA | range over four strains | 2 to 8 µM |
| Oc1c(Br)ccc2cccnc12 | Listeria monocytogenes | microbial growth, agar dilution |  |  | 35.7 µM |
| CC[C@@H](C)[C@@H](NC(=O)[C@@H](C)NC(=O)[C@@H](CCCCN)NC(=O)[C@@H](CC(C)C)NC(=O)[C@@H](C)NC(=O)[C@H](NC(=O)[C@@H](Cc1c[nH]cn1)NC(=O)[C@@H](CC(C)C)NC(=O)[C@H](NC(=O)[C@H](NC(=O)[C@@H](CCCCN)NC(=O)[C@H](NC(=O)[C@@H](C)NC(=O)[C@@H](CO)NC(=O)[C@@H](CCCCN)NC(=O)[C@@H](Cc1ccccc1)NC(=O)[C@H](NC(=O)[C@@H](CCCCN)NC(=O)[C@@H](CC(C)C)NC(=O)[C@@H](Cc1ccccc1)NC(=O)[C@@H](CO)NC(=O)[C@@H](CCCCN)NC(=O)[C@@H](Cc1c[nH]c2ccccc12)NC(=O)[C@@H](CCCCN)NC(C)=O)[C@H](C)O)C(C)C)[C@H](C)O)C(C)C)[C@H](C)O)C(=O)N[C@H](CO)C(=O)N[C@H](CO)C(N)=O | Acinetobacter baumannii | broth microdilution | ATCC 19606 | 24 h, 37 °C | 0.7 µM |
| N#Cc1ccc2cccc(O)c2n1 | most tested bacterial strains | agar dilution |  |  | > 1500 µM |
| CO[C@@H]1[C@@H](O[C@@H]2O[C@H](C)[C@@H](O[C@H]3C[C@@](C)(O)[C@@H](OC(=O)CC(C)C)[C@H](C)O3)[C@H](N(C)C)[C@H]2O)[C@@H](CC=O)C[C@@H](C)[C@@H](O[C@H]2CC[C@H](N(C)C)[C@@H](C)O2)/C=C/C=C/C[C@@H](C)OC(=O)C[C@H]1O | Staphylococcus aureus, Staphylococcus epidermidis, Bacillus subtilis |  | incl. MRSA | range over four strains | 4 to 16 µM |
| Oc1c(Cl)cc(Cl)c2cccnc12 | Achromobacter xylosoxidans | agar dilution | ATCC 27061 |  | 37.4 µM |
| CC[C@@H](C)[C@@H](NC(=O)[C@@H](C)NC(=O)[C@@H](CCCCN)NC(=O)[C@@H](CC(C)C)NC(=O)[C@@H](CC(C)C)NC(=O)[C@H](NC(=O)[C@@H](CCCCN)NC(=O)[C@@H](CC(C)C)NC(=O)[C@@H](C)NC(=O)[C@@H](CCCCN)NC(=O)[C@@H](CCCCN)NC(=O)[C@@H](CCCCN)NC(=O)[C@@H](C)NC(=O)[C@@H](CCCCN)NC(=O)[C@@H](CO)NC(=O)[C@@H](Cc1ccccc1)NC(=O)[C@H](NC(=O)[C@@H](CCCCN)NC(=O)[C@@H](CC(C)C)NC(=O)[C@@H](Cc1ccccc1)NC(=O)[C@@H](CO)NC(=O)[C@@H](CCCCN)NC(=O)[C@@H](Cc1c[nH]c2ccccc12)NC(=O)[C@@H](CCCCN)NC(C)=O)[C@H](C)O)[C@H](C)O)C(=O)N[C@H](CO)C(=O)N[C@H](CCCCN)C(N)=O | Acinetobacter baumannii |  | 1012, Mueller-Hinton broth | 24 h, 37 °C | 0.7 µM |
